Results pooled from the literature.
Numbered parts are unrelated; each lists some results of a single study.

Study 1
Target: RNA binding protein fox-1 homolog 2, RRM domain, GST-SBP tag (RBFOX2, Homo sapiens, UniProt O43251-10, residues 100-194)
Method: RNA Bind-n-Seq
Form: RNA
Matrix: in vitro
Concentration: 365 nM
Setting: natural RNA segment, single round, ends assumed
Reference: no-protein control
Direction: higher = stronger binding
Measurement: RBNS enrichment (R)
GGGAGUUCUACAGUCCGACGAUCCCACCCCGAUUCUCACCACAAAGUUAGAAACCCUCCACUUUCUGUCCCUUGAACCAUAUCAGAAAAAGACCCAUUUCCUUGCUCUUUGGUAAUCACUUCUGUUUUUUUCUUGGAAUUCUCGGGUGCCAA: 0.753
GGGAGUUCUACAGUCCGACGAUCGUGUGGAUCAGAUACAUACUUGGCAAAUUUUUGAGUUUUACAUUCUUACAGAAAAGUCCAUUUAAAAGUGAUCAUUUGUAAGACCAAAAUAUAAAUAAAAAGUUUCAAAAUGGAAUUCUCGGGUGCCAA: 0.619
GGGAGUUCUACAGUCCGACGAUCGCUGUGCCUGCUCCAGAGGCAUGGGCCACCUGGGUAACAGCACACAGCAGAAAAGCACAGAGAGAAAAACAACUGGUCCAGAAAUUCAGUGGAUCCAUGACUUACGUGUCUGGAAUUCUCGGGUGCCAA: 0.449
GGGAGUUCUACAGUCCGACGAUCAUCAACAACCCUAAUUAUGGUCACAAUGCUACCAAACUGUAGAUGGUAGCUAAUUUUUCUUUACCUAUUUUCUAAUGUCAUGAUUCCUGUUUGCCCAAUGGAUCAUUUGUUGGAAUUCUCGGGUGCCAA: 8.52
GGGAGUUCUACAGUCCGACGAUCUAUGUGCUAGCUUGUAUAUAUAUAUAUAUAUUUAAAAAAAAUCUACCUGCUUCUGACUUUAAGCAAAAGGAAAGAAAACUACCUUUUUAUAUAAUGCACAACUGUUGAUGUGGAAUUCUCGGGUGCCAA: 1.97
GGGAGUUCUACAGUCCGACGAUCUAAUCAGUAUCAUUUCUACACCAAAAUAUUGUUUUUUUCCCUCACUAAAGACAAUAUAAAGAAAAAUAAUCUAAGAAGAUAAAGGGGCUUUCUGCUUAAAGAUAUGUAGAUGGAAUUCUCGGGUGCCAA: 0.452
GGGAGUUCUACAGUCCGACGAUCAGAUGCUUGAAAUUUAACACUUUUCACUUGGUUCUUAUACUGAAUGCCGACUCUGCUCUGUGUUAGAGAUAUGAAAUGGUGUUUGAUACUGUUUGAGACAUUAUGGAGAGUGGAAUUCUCGGGUGCCAA: 0.559
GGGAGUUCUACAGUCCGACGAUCGGUCAUCUAGUACCUGAUUGGAUAGCUUACAUAUUUAUUGGAUGCUUUGAACAGCUGUAUAUUAGUCCAUAACAUAACUACAAGAUUAGAUAGAGGCAACAUACUGUUAAUGGAAUUCUCGGGUGCCAA: 0.689
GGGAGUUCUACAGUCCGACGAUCGCUCUAGAAGAGUUGAAACAUAGAUCAUUGAAGGUUAAAAAUCCUCUUCCAAAGCAGCAAGUCAAUCAAUACAAUAAUGAUAUUUGGGGAGGGGUGGGAGCCCUUAAGAAUGGAAUUCUCGGGUGCCAA: 0.754
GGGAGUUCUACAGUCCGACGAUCAGGCCGAGAAGACCUUCUGUUCCUGUAAAUACAGCCAGCAAGUGCAAACUGUGAUUUUAUUUUCCACGUAUUCCUGAGGACGGACUGGACCGUCUAUGUUUUUUCAGCCCUGGAAUUCUCGGGUGCCAA: 0.556
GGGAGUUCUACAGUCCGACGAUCUGACACCAAAAGGCUCAGCCCACCCCAACCCUAUCUCAUGUUCAGUCUGUCUAAUACAUGCCAGAGAUUUUUUUUUCAAAAAGUGCUUUAUCCCUACAAUGUACUGACAGUGGAAUUCUCGGGUGCCAA: 0.4
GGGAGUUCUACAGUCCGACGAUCCAUGUGUGGCAUCUUUUUCAUGCCACCAACAAACUUGUUGUGUGUGUGCGUGUGUGUGUGUGUGUGUGUGUGUGUGUGUGUGUUCUGUACCCACUAGGAUUUGUUUAGGUUGGAAUUCUCGGGUGCCAA: 7.51

Study 2
Target: Sal-like protein 4, full length isoform B (SALL4, Homo sapiens, UniProt Q9UJQ4-2, residues 1-616)
Method: universal PBM
Form: double-stranded DNA, one strand shown
Matrix: in vitro
Concentration: not given
Setting: 8-mer, flanks averaged, mean of replicates
Direction: higher = stronger binding
Measurement: E-score
Target sequence (chain): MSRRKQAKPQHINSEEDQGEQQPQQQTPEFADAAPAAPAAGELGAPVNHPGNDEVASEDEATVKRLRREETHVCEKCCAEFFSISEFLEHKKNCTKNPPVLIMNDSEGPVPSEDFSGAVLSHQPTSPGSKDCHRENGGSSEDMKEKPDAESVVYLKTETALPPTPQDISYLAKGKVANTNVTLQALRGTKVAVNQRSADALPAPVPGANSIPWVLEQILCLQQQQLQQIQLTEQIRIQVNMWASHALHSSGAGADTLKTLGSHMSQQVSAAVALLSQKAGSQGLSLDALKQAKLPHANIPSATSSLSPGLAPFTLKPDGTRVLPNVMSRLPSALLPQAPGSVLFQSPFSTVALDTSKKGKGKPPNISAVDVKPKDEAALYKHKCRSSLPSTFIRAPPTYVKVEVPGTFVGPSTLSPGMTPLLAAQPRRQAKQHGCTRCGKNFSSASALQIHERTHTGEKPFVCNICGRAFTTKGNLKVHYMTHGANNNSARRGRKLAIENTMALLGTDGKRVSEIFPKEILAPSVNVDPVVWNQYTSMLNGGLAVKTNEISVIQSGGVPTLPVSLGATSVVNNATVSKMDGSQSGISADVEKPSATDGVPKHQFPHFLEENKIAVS
AGGTTGAA: 0.101
AGACCTAA: -0.0741
ACTACTTA: 0.157
AGTCGCAC: -0.0735
AACGAACG: -0.0123
CCTTGACC: -0.272
ATTGAGTC: -0.0103
GACCGTGA: -0.186
GAAGCTGC: -0.289
CGAAGGCG: -0.177
AGCTATGA: 0.164
CCTATTCG: -0.0324
CAGTGAAC: -0.0165
AACTACAG: 0.0299
CACTTGAG: -0.101
AAGGACGC: -0.0735
GGCGCTCA: -0.276
CCGAACAC: -0.0667
GCCCTCCC: -0.338
CCCTACCG: -0.155
GTATTGCA: 0.0683
AACAATAG: 0.201
GTGTGGGA: -0.0923
ACAGGTAC: -0.0261
GTCCTACA: -0.00077

Study 3
Target: Ras GTPase-activating protein-binding protein 1, full length (G3BP1, Homo sapiens, UniProt Q13283)
Chain of UniProt Q13283 (whole entry, looked up): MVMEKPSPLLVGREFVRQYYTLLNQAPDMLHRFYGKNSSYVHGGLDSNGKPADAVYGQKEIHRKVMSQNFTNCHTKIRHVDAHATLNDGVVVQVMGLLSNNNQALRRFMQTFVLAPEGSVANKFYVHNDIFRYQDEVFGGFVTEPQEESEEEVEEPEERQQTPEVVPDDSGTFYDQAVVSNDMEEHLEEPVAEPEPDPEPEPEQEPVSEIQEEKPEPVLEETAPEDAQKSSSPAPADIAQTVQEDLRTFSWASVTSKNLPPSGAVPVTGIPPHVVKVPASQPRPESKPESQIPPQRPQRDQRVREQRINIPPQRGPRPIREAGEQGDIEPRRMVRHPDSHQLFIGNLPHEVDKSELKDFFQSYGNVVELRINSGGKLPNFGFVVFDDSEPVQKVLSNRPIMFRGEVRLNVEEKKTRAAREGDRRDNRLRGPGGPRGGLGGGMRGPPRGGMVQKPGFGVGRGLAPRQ
Method: RNA Bind-n-Seq
Form: RNA
Matrix: in vitro
Concentration: 200 nM
Setting: whole 134-nt RNA, ends assumed
Together with: 150 mM KCl
Reference: input library
Direction: higher = stronger binding
Measurement: log2 enrichment
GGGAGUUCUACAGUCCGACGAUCGUCCUGUGCUACACAUCGUAUGUACCGAAUCGGGAAAAAGGGAAAGGGAAAAAAAGGGAAAGUAUUAUGUUACGCCGUUCGGAUCUGCACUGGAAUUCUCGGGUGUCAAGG: -0.407
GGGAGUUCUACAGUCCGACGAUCACCAUGCAGGUGGGCAUCUUUGGGAAGUGGGGCAAGGGGGGGAUAGGGAGGGGGGUAACACUUUGGGAACAGUUGGUCCCAGGUCGUUUCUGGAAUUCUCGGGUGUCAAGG: 0.93
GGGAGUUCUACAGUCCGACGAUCAGUCCUGUGCUACACAUCGUAUGUACCGAAUCGGGGUUUUUUUGGGGAGGGGAGGGGAAAGUAUUAUGUUACGCCGUUCGGAUCUGCACUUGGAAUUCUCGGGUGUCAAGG: 0.632
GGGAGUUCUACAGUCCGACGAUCACCAUGCAGGUGGGCAUCUAUGGGAAGUGGGGCAAGGGGGGGAUAGGGAGGGGGGUAACACUUUGGGAACAGGUGGUCCCAGGUCGUUUCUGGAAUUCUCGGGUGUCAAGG: 1.37
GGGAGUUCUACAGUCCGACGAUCCCUGUGCUACACAUCGUAUGUACCGAAUCGGGUUUUUUUGGGAAAAAAAGGGAAAAAGGGAAAGUAUUAUGUUACGCCGUUCGGAUCUGCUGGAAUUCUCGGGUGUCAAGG: -1.05
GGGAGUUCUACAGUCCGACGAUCUCGGCUACACUGCCCGGAGAAUUCUCAAUGAGGAUGGCAGCCCUAACCUGGACUUCAAGCCUGAAGACCAGCCCCAUUUUGACAUCAAGGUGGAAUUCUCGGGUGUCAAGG: 0.244
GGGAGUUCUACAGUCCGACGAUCUCCUGUGCUACACAUCGUAUGUACCGAAUCAAACCCCCAAACCCCCAAAUUUUUUUAAAAAAGUAUUAUGUUACGCCGUUCGGAUCUGCAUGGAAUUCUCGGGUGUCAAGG: -0.108
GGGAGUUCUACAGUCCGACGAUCGCAGGAAGUAAAAACAAAUGGAAAUGCUUCGGAUAGUGGCAGGGGUGGGGGUUGCUAAGCAAAGGGUGGGAUGGGAGUGGGUAAAGAGUUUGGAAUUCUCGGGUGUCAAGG: 0.773
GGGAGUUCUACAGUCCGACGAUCACCAUGCAGGUGGGCAUCUUUGGGAAGUGGGGCAAGGGGGGGAUAGGGAGGGGGGUAACACUCUGGGAACAGGUGGUCCCAGGUCGUUUCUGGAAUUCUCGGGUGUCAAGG: 0.996
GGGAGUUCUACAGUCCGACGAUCAAGUCCUGUGCUACACAUCGUAUGUACCGAAUCGGUUUUGGGUUUUGGGUUUUGGGGAAAGUAUUAUGUUACGCCGUUCGGAUCUGCACUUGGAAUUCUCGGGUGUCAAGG: -0.7
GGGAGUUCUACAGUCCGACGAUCCUCAAGUCCUGUGCUACACAUCGUAUGUACCGAAUCGGGAAAGGGAGGGAGGGAAAGUAUUAUGUUACGCCGUUCGGAUCUGCACUUCCAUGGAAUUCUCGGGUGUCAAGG: 1.37
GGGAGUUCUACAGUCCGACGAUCGCAGGAAGUAAAAACAAAUGGAAAUGCUUCGGAUAGUGGCAGGGGUGGGGGUUGCUAAGGAAAAGGUGGGAUGGGAGUGGGUAAAGAGUUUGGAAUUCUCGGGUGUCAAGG: 1.08
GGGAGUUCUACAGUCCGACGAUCUCCUGUGCUACACAUCGUAUGUACCGAAUCGGGGCCCCCGGGGCCCCCGGGCCCCCGGGGAAAGUAUUAUGUUACGCCGUUCGGAUCUGCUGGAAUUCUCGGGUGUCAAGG: -0.588
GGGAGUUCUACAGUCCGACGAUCCUCAAGUCCUGUGCUACACAUCGUAUGUACCGAAUCGGGAGGGAGGGUUUGGGAAAGUAUUAUGUUACGCCGUUCGGAUCUGCACUUCCAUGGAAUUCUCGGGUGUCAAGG: 1.27

Study 4
Target: Histone acetyltransferase KAT6A, both winged helices, GST fusion (KAT6A, Homo sapiens, UniProt Q92794, residues 1-181)
Method: protein binding microarray
Form: double-stranded DNA, one strand shown
Matrix: in vitro
Concentration: not given
Setting: 8-mer, flanks averaged, mean of 2 arrays, mostly near background
Reference: not given
Direction: higher = stronger binding
Measurement: E-score
Target sequence (chain): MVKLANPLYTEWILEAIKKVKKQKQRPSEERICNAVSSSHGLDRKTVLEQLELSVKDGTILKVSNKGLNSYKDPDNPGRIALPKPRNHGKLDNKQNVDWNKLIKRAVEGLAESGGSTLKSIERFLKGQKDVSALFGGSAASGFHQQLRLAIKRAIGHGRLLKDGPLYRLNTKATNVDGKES
AAAGCTTG: -0.153
AGACCCAT: -0.152
GCCTTGTA: -0.0313
GGCGCCGA: 0.352
CGTAGGGC: 0.132
AGCGGTTG: 0.138
AGCTAGCA: -0.0986
ATAGTTGC: -0.0605
ATGGCACG: 0.1
GGTTAGCA: -0.0429
AATGATTA: -0.137
TGAGAGAA: -0.193
ACAGTTCG: 0.136
CTATCAGA: 0.0351
GCCGCCGC: 0.383
CACCCCCC: -0.014
ATTCGGGA: 0.0186
CGTCGAAA: 0.19
CCGAGCCA: 0.0792
CATAAGAC: 0.0302
CAACCAGG: -0.0991
CGTTCGAG: 0.075
TAGACGGA: 0.234
ACGTATAG: -0.00342
CACTTCAC: -0.0166

Study 5
Target: Transcription factor SOX-2, HMG box (Sox2, Mus musculus, UniProt P48432, residues 41-119)
Chain of UniProt P48432 (41-119, looked up): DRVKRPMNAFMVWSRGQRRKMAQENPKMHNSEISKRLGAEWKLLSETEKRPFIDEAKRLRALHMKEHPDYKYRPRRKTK
Method: Spec-seq
Form: double-stranded DNA, one strand shown
Matrix: in vitro
Concentration: not given
Setting: whole probe, mean of replicates
Reference: not given
Direction: lower = stronger binding
Measurement: relative binding energy
All sequences stand within: GAGTCGTCTCGTCAGCAC … CCGTAGAGCACTCAGGTC
ATGAGTT: 0.674 ln ratio
TGCCGTT: 1.1 ln ratio
AGAGGTT: 0.331 ln ratio
CATACTA: -0.188 ln ratio
CATCCCA: 0.761 ln ratio
CATACTT: -0.0952 ln ratio
CGTTGTT: -1.37 ln ratio
AGCAGTT: 0.623 ln ratio
CATATGT: 0.0139 ln ratio
CATTTGG: 0.148 ln ratio
CATGTCC: 0.762 ln ratio
CATCTTT: 0.435 ln ratio
ATTAGTT: -0.321 ln ratio
TTGTGTT: -0.686 ln ratio
CATATTT: 0.0183 ln ratio
TGGCGTT: 1.15 ln ratio

Repeated from above (study 2):
ACAGGTAC: -0.0261
CCTTGACC: -0.272
GAAGCTGC: -0.289
GTCCTACA: -0.00077
CGAAGGCG: -0.177
AGACCTAA: -0.0741
GCCCTCCC: -0.338
AGGTTGAA: 0.101
CACTTGAG: -0.101
GTGTGGGA: -0.0923
